Results collected from several papers.
Each line is one published result; not all experiments were run side by side. Several values in a cell are separate wells, animals, samples, runs or records. Numbers after ± are the reported error.

COc1ccnc(C(=O)NC(CO)C(=O)O)c1O (racemic)  DT50 whole system (Staffordshire loam sediment, aerobic dark; 20 °C): 38.3 days
Cc1cc(NC2CCN(C(=O)OC3CCN(C(=O)/C=C/CN(C)C)C3)CC2)n2ncc(C(C)C)c2n1 (centres unmarked)  patients with adverse events (patients with advanced solid tumours; dose not given, Total arm, any grade): 96%
O=C(O)CCC(=O)O.[2H]C([2H])([2H])Oc1cc(C)c2[nH]ccc2c1CN1CC[C@@H](C2CC2)C[C@H]1c1ccc(C(=O)O)cc1  Vss/F (human, plasma; 125 mg twice daily, day 10, multiple ascending dose): 131 L
COc1cc(F)c([C@@H]2CNC(=O)[C@H]2NC(=O)Nc2ccccc2)c(F)c1  blood concentration (Sprague-Dawley rat, myocardial infarction, dried blood spot; oral, 1 mg/kg, 1 h): 210 ± 72 nM
N#C[C@@]1(c2ccc3c(N)ncnn23)O[C@H](CO)[C@@H](O)[C@H]1O  recovery (plasma protein binding; rat plasma; 100 µM, time not given): 97.4%
O=C(O)c1ccc(O)cc1  log2 fold change (binding, MIDAS equilibrium dialysis LC-MS; A2AR-BRIL thermostabilized; concentration not given; reference: no-protein control): -0.308
O=C(Nc1cnccc1Cl)N1CCN(Cc2ccc3c(c2)OC(F)(F)O3)CC1  adverse event incidence (refers to: Dizziness; human healthy young men; 75 mg, multiple dose): 0%
O=C(CCCCCCC(=O)Nc1ccc(CC[18F])cc1)NO  tissue uptake (athymic nu/nu male mice, LNCaP xenograft, heart; intravenous, 0.5 h): 4.3 ± 0.7 %ID/g
Cn1nc2c(=O)n(C3CC3)cnc2c1[C@](O)(c1cnc(C(F)(F)F)c(Cl)c1)C(F)(F)F  fraction unbound (mouse, plasma): 0.08
COc1ccc2nc([S@@+]([O-])Cc3ncc(C)c(OC)c3C)[nH]c2c1  AUC fold decrease (human male, dried plasma spots; dose not given, mean of (R)- and (S)-enantiomers, with: rifampicin pretreatment; reference: control over induction): 10.7 fold
CNC(=O)c1ccc(-c2cnc3ncc(Cc4ccc5ncccc5c4)n3n2)cc1F  patients with adverse event (refers to: Vomiting, all grades; cancer patients; oral, 600 mg twice daily, other expansion cohort, any causality): 28%
FC(F)(F)c1ccc(CNc2ccc(Cc3c[nH]c4ncc(Cl)cc34)cn2)cn1  treatment-related adverse events (refers to: Dizziness; patients with advanced solid tumours, non-TGCT cohort; oral, 1000 mg/day, any grade): 0%
O=C(Nc1nc2cccc(-c3ccc(CN4CCS(=O)(=O)CC4)cc3)n2n1)C1CC1  treatment-emergent adverse events (refers to: renal and urinary disorders; rheumatoid arthritis patients; oral, 75 mg once daily, 4 weeks, any relatedness): 0%
CC[C@@H]1CN(C(=O)NCC(F)(F)F)C[C@@H]1c1cnc2cnc3[nH]ccc3n12  ER dose fraction absorbed zero-order (population PK modelling; human; oral, extended-release formulation, outliers re-estimated): 72.9%
C[C@@H]1COCCN1c1cc(C2([S@](C)(=N)=O)CC2)nc(-c2cc[nH]c3nccc2-3)n1  Pruritus incidence (Japanese advanced solid tumour patients; oral, 160 mg twice daily, any grade): 0%
C[C@@H](Oc1ccc(S(C)(=O)=O)cc1C(=O)N1C[C@@H]2C[C@]2(c2cc(C(F)(F)F)on2)C1)C(F)(F)F  renal clearance at steady state (elderly humans, urine; oral, 50 mg once daily, 0-24 h, multiple dose, geometric mean): 7.83 mL/min
O=C(O)C1=CO[C@@H](O[C@@H]2O[C@H](CO)[C@@H](O)[C@H](O)[C@H]2O)[C@@H]2C(CO)=CC[C@H]12  accuracy (post-procedure stability; rat plasma; 8 ng/mL, 1 h, room temperature): 92.3%
Oc1ccc(/C=C/c2cc(O)cc(O)c2)cc1  HDL cholesterol (rat, azoxymethane-injected, blood at sacrifice; 100 mg/kg): 26 mg/dL and 23 mg/dL
NC1(C(=O)N[C@@H](CCO)c2ccc(Cl)cc2)CCN(c2nc[nH]c3nccc2-3)CC1  incidence of Fatigue (metastatic CRPC patients; 320 mg b.i.d., any grade, treatment-related, with: enzalutamide 160 mg daily): 0%
CCc1nc(C(N)=O)c(Nc2ccc(N3CCC(N4CCN(C)CC4)CC3)c(OC)c2)nc1NC1CCOCC1  autosampler stability accuracy (processed mouse plasma; 425 ng/mL, 24 h, 4 °C): 98.5%
CC(C)n1c(Nc2cccnc2)nc2cnc(Nc3ccc(N4CCN(C)CC4)cc3)nc21  subjects with adverse event (refers to: nausea; healthy male subjects; oral, 100 mg, study, with: gemfibrozil): 7.1%
CC(C(=O)NCC(=O)NCC(CNC(=O)CNC(=O)C(C)N1CCN(CC(=O)[O-])CCN(CC(=O)[O-])CCN(CC(=O)[O-])CC1)(CNC(=O)CNC(=O)C(C)N1CCN(CC(=O)[O-])CCN(CC(=O)[O-])CCN(CC(=O)[O-])CC1)CNC(=O)CNC(=O)C(C)N1CCN(CC(=O)[O-])CCN(CC(=O)[O-])CCN(CC(=O)[O-])CC1)N1CCN(CC(=O)[O-])CCN(CC(=O)[O-])CCN(CC(=O)[O-])CC1.[Gd+3].[Gd+3].[Gd+3].[Gd+3] (centres unmarked)  Gd release (LC-ICP-MS; human plasma; 1 mmol Gd/L, per day, pH 7.4, 37°C): not detected
CO[C@H]1/C=C/O[C@@]2(C)Oc3c(C)c(O)c4c(c3C2=O)C2=NC3(CCN(CC(C)C)CC3)NC2=C(NC(=O)/C(C)=C\C=C\[C@H](C)[C@H](O)[C@@H](C)[C@@H](O)[C@@H](C)[C@H](OC(C)=O)[C@@H]1C)C4=O  fAUC/MIC ratio (CD-1 mouse, plasma; oral, dose not given, efficacy dose): 0.474
CO[C@H]1/C=C/O[C@@]2(C)Oc3c(C)c(O)c4c(c3C2=O)C2=NC3(CCN(CC(C)C)CC3)NC2=C(NC(=O)/C(C)=C\C=C\[C@H](C)[C@H](O)[C@@H](C)[C@@H](O)[C@@H](C)[C@H](OC(C)=O)[C@@H]1C)C4=O  Vd (CD-1 mouse, female, plasma; 10 mg/kg single dose): 3.51 L/kg
CN(CCC(=O)O)C(=O)c1ccc2c(c1)CC[C@@H]1[C@@H]2CC[C@]2(C)C(c3cncc(F)c3)=CC[C@@H]12  total bilirubin change (premenopausal women with endometriosis pain, serum; 60 mg twice daily, end of treatment, completers, median; reference: baseline): 0.4 mg/dL
CC(C)[C@H](C(=O)Nc1ccc(C(=O)NO)cc1)c1ccccc1  accuracy (whole blood; 1000 ng/mL, 3 h, 4 °C, stability on ice): 107%
Cn1cc(Nc2nccc(-c3ccc4c(c3)CN(C3COC3)CC[C@H]4NC(=O)c3cn(C(C)(C)C)nn3)n2)cn1  granulocyte count change (human, whole blood; 150 mg twice daily, day 7; reference: pre-dose baseline): 3.78%
CC[C@H](C)[C@H](NC(=O)CN)C(=O)N[C@@H](CC(C)C)C(=O)N[C@@H](CC(=O)O)C(=O)N[C@@H](C)C(=O)N[C@H](C(=O)N[C@@H](CCCCN)C(=O)N[C@@H](C)C(=O)N[C@H](C(=O)N[C@@H](C)C(=O)N[C@@H](CCCCN)C(=O)N[C@@H](C)C(=O)N[C@H](C(=O)N[C@@H](CCCCN)C(=O)N[C@@H](C)C(=O)N[C@@H](CCCCN)C(=O)N[C@@H](C)C(=O)NCC(N)=O)[C@@H](C)CC)[C@@H](C)CC)[C@@H](C)CC  helix content (circular dichroism; 10 mM SDS; 100 µM): 16%
Cc1cc([C@H]2C[C@H]3[C@@H](CF)SC(N)=N[C@@]3(c3ccc(F)cc3F)CO2)on1  plasma concentration (male 129/SVE wild-type mouse, plasma; subcutaneous, 100 mg/kg, 7 h): 72 nM
CCc1cc(C(=O)NC)c2nccc(N3CCc4c(cc(Cn5ccnc5)cc4-c4cn(C)nc4C(F)(F)F)C3=O)c2c1  reticulocyte percentage change (Sprague Dawley rats; oral, 50 mg/kg once daily, 7 days; reference: vehicle): -6.52%
CCOc1c([C@H](C)n2nc(C)c3c(N)ncnc32)cc(Cl)c(F)c1[C@@H]1CNC(=O)C1  patients (refers to: QRS >100 to ≤110 ms; previously treated B-cell malignancy; oral, 30 mg once daily, baseline below thresholds): 10.5%
CNCc1ccc(-c2[nH]c3cc(F)cc4c3c2CCNC4=O)cc1  patients with adverse event (refers to: headache; human patients; oral, 600 mg twice daily, grade 5): 0%
c1ccc2c(c1)ccc1cc3c(ccc4ccccc43)cc12  literature range factor (PDMS-water partitioning; PAH compilation; reference: maximum over minimum K): 2
CCCCCCCCCCCCCCCC(=O)N[C@@H](CCC(=O)NCCCC[C@H](NC(=O)[C@H](C)NC(=O)[C@H](C)NC(=O)[C@H](CCC(N)=O)NC(=O)CNC(=O)[C@H](CCC(=O)O)NC(=O)[C@H](CC(C)C)NC(=O)[C@H](Cc1ccc(O)cc1)NC(=O)[C@H](CO)NC(=O)[C@H](CO)NC(=O)[C@@H](NC(=O)[C@H](CC(=O)O)NC(=O)[C@H](CO)NC(=O)[C@@H](NC(=O)[C@H](Cc1ccccc1)NC(=O)[C@@H](NC(=O)CNC(=O)[C@H](CCC(=O)O)NC(=O)[C@H](C)NC(=O)[C@@H](N)Cc1cnc[nH]1)[C@@H](C)O)[C@@H](C)O)C(C)C)C(=O)N[C@@H](CCC(=O)O)C(=O)N[C@@H](Cc1ccccc1)C(=O)N[C@H](C(=O)N[C@@H](C)C(=O)N[C@@H](Cc1c[nH]c2ccccc12)C(=O)N[C@@H](CC(C)C)C(=O)N[C@H](C(=O)N[C@@H](CCCNC(=N)N)C(=O)NCC(=O)N[C@@H](CCCNC(=N)N)C(=O)NCC(=O)O)C(C)C)[C@@H](C)CC)C(=O)O  AUC(0-peak) (rat Sprague-Dawley male, plasma; subcutaneous, 1.0 mg/kg, first injection, 7 day escalation): 125 µg·h/mL
Cc1cc(Nc2ccc(S(F)(F)(F)(F)F)cc2)n2nc(C(C)(F)F)nc2n1  adverse event gastrointestinal disorders (Plasmodium vivax malaria patients; oral, 600 mg): 22.2%
OCC1=C[C@@H](O)[C@@H]2C=CO[C@@H](O[C@@H]3O[C@H](CO)[C@@H](O)[C@H](O)[C@H]3O)[C@H]12  accuracy (post-procedure stability; rat plasma; 1000 ng/mL, 3 h, room temperature): 89.2%
c1ccc2c(c1)-c1cccc3c1c-2cc1ccccc13  literature range factor (PDMS-water partitioning; PAH compilation; reference: maximum over minimum K): 7
CO[C@H]1C[C@@H]2CC[C@@H](C)[C@@](O)(O2)C(=O)C(=O)N2CCCC[C@H]2C(=O)O[C@H]([C@H](C)C[C@@H]2CC[C@@H](O)[C@H](OC)C2)CC(=O)[C@H](C)/C=C(\C)[C@@H](O)[C@@H](OC)C(=O)[C@H](C)C[C@H](C)/C=C/C=C/C=C/1C  heart rate (healthy adult horses; oral, 0.06 mg/kg, 2 h): 34.5 ± 2.8 beats/min
C=CCN1CC(=O)N2[C@@H](Cc3ccc(O)cc3F)C(=O)N(Cc3cccc(N4CC(N5CCN(CC)CC5)C4)n3)C[C@@H]2N1C(=O)NCc1ccccc1  treatment-related ALT increased (advanced solid tumour patients; oral, 45 mg twice daily, grade ≥3, dose-escalation): 0%
N[C@@H](COP(=O)(O)O)C(=O)O  log2 fold change (binding, MIDAS equilibrium dialysis LC-MS; A2AR-BRIL thermostabilized; concentration not given; reference: no-protein control): -0.205
Cc1ccc([C@@H]2O[C@H](CO)[C@@H](O)[C@H](O)[C@H]2O)cc1Cc1ccc(-c2ccc(F)cc2)s1  urinary phosphate excretion change (refers to: inorganic phosphorus; Japanese type 2 diabetes patients; 100 mg, day 6, 24 h urine collection; reference: baseline): 18.6 mg
CCN1/C(=C/C(C)=O)Sc2ccc(F)cc21  QTc interval change (cynomolgus monkey; oral, 100 mg/kg, 2 h post-dose; reference: pre-dose): 98.2 ± 2.2%
N#Cc1ccc2c(c1)[C@H]1CCCN(C(=O)c3ccc4[nH]cnc4c3)[C@H]1C2  minimum ACTH level (human; 20 mg, day 7): 4.2 pmol/L
C[Si]1(C)O[Si](C)(C)O[Si](C)(C)O[Si](C)(C)O[Si](C)(C)O1  entropy of phase change (1-octanol/air; concentration not given): -0.064 kJ/(mol·K)

For quick reference, copied from above:
N[C@@H](COP(=O)(O)O)C(=O)O  log2 fold change (binding, MIDAS equilibrium dialysis LC-MS; A2AR-BRIL thermostabilized; concentration not given; reference: no-protein control): -0.205
COc1ccc2nc([S@@+]([O-])Cc3ncc(C)c(OC)c3C)[nH]c2c1  AUC fold decrease (human male, dried plasma spots; dose not given, mean of (R)- and (S)-enantiomers, with: rifampicin pretreatment; reference: control over induction): 10.7 fold
CCCCCCCCCCCCCCCC(=O)N[C@@H](CCC(=O)NCCCC[C@H](NC(=O)[C@H](C)NC(=O)[C@H](C)NC(=O)[C@H](CCC(N)=O)NC(=O)CNC(=O)[C@H](CCC(=O)O)NC(=O)[C@H](CC(C)C)NC(=O)[C@H](Cc1ccc(O)cc1)NC(=O)[C@H](CO)NC(=O)[C@H](CO)NC(=O)[C@@H](NC(=O)[C@H](CC(=O)O)NC(=O)[C@H](CO)NC(=O)[C@@H](NC(=O)[C@H](Cc1ccccc1)NC(=O)[C@@H](NC(=O)CNC(=O)[C@H](CCC(=O)O)NC(=O)[C@H](C)NC(=O)[C@@H](N)Cc1cnc[nH]1)[C@@H](C)O)[C@@H](C)O)C(C)C)C(=O)N[C@@H](CCC(=O)O)C(=O)N[C@@H](Cc1ccccc1)C(=O)N[C@H](C(=O)N[C@@H](C)C(=O)N[C@@H](Cc1c[nH]c2ccccc12)C(=O)N[C@@H](CC(C)C)C(=O)N[C@H](C(=O)N[C@@H](CCCNC(=N)N)C(=O)NCC(=O)N[C@@H](CCCNC(=N)N)C(=O)NCC(=O)O)C(C)C)[C@@H](C)CC)C(=O)O  AUC(0-peak) (rat Sprague-Dawley male, plasma; subcutaneous, 1.0 mg/kg, first injection, 7 day escalation): 125 µg·h/mL
N#Cc1ccc2c(c1)[C@H]1CCCN(C(=O)c3ccc4[nH]cnc4c3)[C@H]1C2  minimum ACTH level (human; 20 mg, day 7): 4.2 pmol/L
